Values quoted from earlier work as cited in several papers.
Protocols differ between the studies behind these lines. ± gives the spread as reported.
Chain of UniProt Q8TDC3 (whole entry, looked up): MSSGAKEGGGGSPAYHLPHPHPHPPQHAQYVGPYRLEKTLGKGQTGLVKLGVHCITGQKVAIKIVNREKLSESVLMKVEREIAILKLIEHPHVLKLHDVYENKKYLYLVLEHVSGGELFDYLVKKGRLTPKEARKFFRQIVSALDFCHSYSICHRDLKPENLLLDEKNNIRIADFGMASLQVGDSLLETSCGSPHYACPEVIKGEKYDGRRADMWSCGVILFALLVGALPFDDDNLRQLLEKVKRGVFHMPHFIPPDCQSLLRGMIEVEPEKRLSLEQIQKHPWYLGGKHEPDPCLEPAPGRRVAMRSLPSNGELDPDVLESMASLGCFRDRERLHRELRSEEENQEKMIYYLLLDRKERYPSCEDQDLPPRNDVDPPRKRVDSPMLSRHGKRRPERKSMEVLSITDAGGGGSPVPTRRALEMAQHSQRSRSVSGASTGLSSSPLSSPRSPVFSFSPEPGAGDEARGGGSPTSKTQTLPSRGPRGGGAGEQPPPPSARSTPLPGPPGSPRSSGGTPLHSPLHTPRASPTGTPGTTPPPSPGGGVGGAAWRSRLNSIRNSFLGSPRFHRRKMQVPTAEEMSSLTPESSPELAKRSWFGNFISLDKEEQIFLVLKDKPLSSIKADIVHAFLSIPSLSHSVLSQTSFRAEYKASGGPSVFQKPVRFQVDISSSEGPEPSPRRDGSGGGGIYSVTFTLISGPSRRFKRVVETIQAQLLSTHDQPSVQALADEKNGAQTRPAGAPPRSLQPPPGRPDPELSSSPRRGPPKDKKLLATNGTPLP

Structure (SMILES) | target or system | test | system | conditions | how to read | endpoint | value
O=C(NCCN1CCOCC1)c1ccc(Cl)cc1 | HepG2 | mitochondrial membrane potential | – | concentration not given, Tox21 | – | activity outcome | inactive
COC[C@H]1C[C@@H](c2ncc(-c3ccc4c(c3)COc3cc5c(ccc6nc([C@@H]7CC[C@H](C)N7C(=O)[C@@H](NC(=O)OC)C(C)C)[nH]c65)cc3-4)[nH]2)N(C(=O)[C@H](NC(=O)OC)c2ccccc2)C1 | OATP1B3 | – | – | – | literature maximum | IC50 | 682 nM
CNCc1cn(S(=O)(=O)c2cccc(F)c2)c(-c2ccc(F)cc2F)c1OC | CYP2A6 | enzyme activity | – | – | – | IC50 | > 50000 nM
C[Si]1(C)O[Si](C)(C)O[Si](C)(C)O[Si](C)(C)O1 | Poecilia reticulata | – | – | concentration not given | – | bioconcentration factor | 1090 L/kg wet weight
CNC(=O)c1c(C)oc2cc(Oc3ncnc4cc(OC)c(OC)cc34)ccc12 | – | – | feces | 5 mg radiolabelled, time not given | – | dose recovered | ~30%
COc1cc(NS(C)(=O)=O)ccc1Nc1c2ccccc2nc2ccccc12 | HepG2 | mitochondrial membrane potential | – | concentration not given, Tox21 | – | mitochondrial toxicity | active
COc1cccc2c1C(=O)c1c(O)c3c(c(O)c1C2=O)C[C@@](O)(C(=O)CO)C[C@@H]3O[C@H]1C[C@H](N)[C@H](O)[C@H](C)O1 | COLO 205 | cell viability | – | – | – | IC50 | 850 nM
[N-]=[N+]=N[C@]1(CO)O[C@@H](n2ccc(N)nc2=O)[C@@H](F)[C@@H]1O | Hut/CCR5 | cytotoxicity | – | – | – | CC50 | 340 nM
CN(C)C/C=C/C(=O)Nc1cc2c(Nc3ccc(F)c(Cl)c3)ncnc2cc1O[C@H]1CCOC1 | Caco-2 | – | – | 300 µM | – | Papp A to B | 12.1 ± 3.43 ×10⁻⁶ cm/s
CC(C)(O/N=C(\C(=O)N[C@@H]1C(=O)N2C(C(=O)[O-])=C(C[n+]3ccccc3)CS[C@H]12)c1csc(N)n1)C(=O)O | Enterobacter cloacae | – | clinical isolate RKI-No_546/13 | – | – | MIC | ≤ 2 µg/mL
C=C[C@@H]1C[C@]1(NC(=O)[C@@H]1C[C@@H]2CN1C(=O)[C@H](C(C)(C)C)NC(=O)O[C@@H]1C[C@H]1CCCCCc1nc3ccc(OC)cc3nc1O2)C(=O)NS(=O)(=O)C1CC1 | CYP2B6 | inhibitor | human liver microsomes | – | – | IC50 | 66000 nM
COc1cc2nccc(Oc3ccc(NC(=O)C4(C(=O)Nc5ccc(F)cc5)CC4)cc3)c2cc1OC | HepG2 | mitochondrial membrane potential | – | concentration not given, Tox21 | – | activity outcome | inactive
CC(O)c1cc(C(=O)N[C@@H](C)Cn2ccc(-c3ccc(C#N)c(Cl)c3)n2)[nH]n1 (stereo partly drawn) | OATP1B3 (SLCO1B3) OATP1B3 | – | – | literature geometric mean | – | IC50 | 14000 nM
Nc1ccccc1NC(=O)c1ccc(CNC(=O)OCc2cccnc2)cc1 | HL-60 | cell viability, MTT | – | – | – | IC50 | 939 ± 59 nM
Nc1ccccc1NC(=O)c1ccc(CNc2nccc(-c3cccnc3)n2)cc1 | HepG2 | mitochondrial membrane potential | – | concentration not given, Tox21 | – | activity outcome | inactive
CC[C@H](CO)N(CCN(N=O)[C@H](CC)CO)N=O | Salmonella typhimurium | – | TA98 and TA100 | concentration not given, pre-incubation, with or without rat S9 | – | Ames test result | negative
C=C[C@@H]1C[C@]1(NC(=O)[C@@H]1C[C@@H]2CN1C(=O)[C@H](C(C)(C)C)NC(=O)O[C@@H]1C[C@H]1CCCCCc1nc3ccc(OC)cc3nc1O2)C(=O)NS(=O)(=O)C1CC1 | OATP1B3 | – | – | – | literature maximum | IC50 | 2910 nM
CCOC(=O)C1=C(C)NC(C)=C(C(=O)OC)C1c1cccc([N+](=O)[O-])c1 (stereo not drawn) | HepG2 | mitochondrial membrane potential | – | concentration not given, Tox21 | – | mitochondrial toxicity | active
CC1(C)S[C@@H]2[C@H](NC(=O)[C@H](N)c3ccccc3)C(=O)N2[C@H]1C(=O)O | Acinetobacter baumannii | – | clinical isolate RKI-No_14/16 | – | – | MIC | > 16 µg/mL
COc1ccc(Cl)cc1C(=O)NCCc1ccc(S(=O)(=O)NC(=O)NC2CCCCC2)cc1 | HepG2 | mitochondrial membrane potential | – | concentration not given, Tox21 | – | activity outcome | inactive
Nc1cc(C(F)(F)F)c(-c2nc(N3CCOCC3)nc(N3CCOCC3)n2)cn1 | BRSK1 (Homo sapiens, UniProt Q8TDC3) | enzyme activity | – | 10 µM | baseline: untreated | remaining activity | 98%

Excerpt of the above:
Structure (SMILES) | target or system | test | system | conditions | how to read | endpoint | value
Nc1cc(C(F)(F)F)c(-c2nc(N3CCOCC3)nc(N3CCOCC3)n2)cn1 | BRSK1 (Homo sapiens, UniProt Q8TDC3) | enzyme activity | – | 10 µM | baseline: untreated | remaining activity | 98%
